{"data": "Results pooled from the literature", "CXCR4": "C-X-C chemokine receptor type 4 (CXCR4, Homo sapiens, UniProt P61073)", "note": "Values joined by “and” are separate records of one study, mostly repeats; a detail may differ.", "chain of UniProt P61073 (whole entry, looked up)": "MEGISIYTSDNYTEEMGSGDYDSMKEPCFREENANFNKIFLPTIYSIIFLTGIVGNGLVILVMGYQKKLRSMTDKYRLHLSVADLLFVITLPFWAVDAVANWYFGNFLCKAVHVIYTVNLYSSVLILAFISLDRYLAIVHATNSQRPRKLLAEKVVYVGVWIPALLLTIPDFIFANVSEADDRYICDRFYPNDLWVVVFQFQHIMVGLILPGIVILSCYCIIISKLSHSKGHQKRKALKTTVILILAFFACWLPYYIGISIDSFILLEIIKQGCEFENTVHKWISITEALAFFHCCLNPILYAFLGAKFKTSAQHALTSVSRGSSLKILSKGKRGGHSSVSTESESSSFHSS"}
{"Structure (SMILES)": "CC(C)(C)C(=O)NC(C(=O)NO)c1ccc(-c2cc(F)c(F)c(F)c2)cc1 (stereo not drawn)", "target or system": "aminopeptidase N2 (Toxoplasma gondii, UniProt S8G5K8, N1303Q/N840Q)", "measurement": "Ki", "value": "44.9 µM"}
{"Structure (SMILES)": "CC(C)C[C@H](NC(=O)[C@H](CO)NC(=O)[C@@H](NC(=O)[C@@H]1CCCN1C(=O)[C@@H](N)CCCCN)C(C)C)C(=O)N[C@@H](CO)C(=O)N[C@@H](Cc1ccc(O)cc1)C(=O)N[C@@H](CCCNC(=N)N)C(=O)NCCCC[C@H](NC(=O)[C@@H]1CSSC[C@H](NC(=O)[C@H](Cc2ccc3ccccc3c2)NC(=O)[C@H](CCCNC(=N)N)NC(=O)[C@@H](N)CCCNC(=N)N)C(=O)N[C@@H](Cc2ccc(O)cc2)C(=O)N[C@@H](CCCNC(=N)N)C(=O)N[C@@H](CCCCN)C(=O)N[C@H](CCCCN)C(=O)N2CCC[C@H]2C(=O)N[C@@H](Cc2ccc(O)cc2)C(=O)N[C@@H](CCCNC(=N)N)C(=O)N[C@@H](CCCNC(N)=O)C(=O)N1)C(=O)O", "target or system": "CXCR4", "assay": "ligand displacement, radioligand", "measurement": "IC50", "value": "0.0212 µM and 0.0217 µM"}
{"Structure (SMILES)": "C=CCCCC(C)(NC(=O)[C@H](Cc1c[nH]cn1)NC(=O)[C@@H](N)CC(=O)O)C(=O)N[C@@H](CC(N)=O)C(=O)N1CCC[C@H]1C(=O)N[C@@H](CCC(N)=O)C(=O)N[C@H](C(=O)N[C@@H](CCCNC(=N)N)C(N)=O)[C@@H](C)CC (stereo partly drawn)", "target or system": "NIH3T3", "assay": "cytotoxicity, MTT", "conditions": "up to 10 µM, 24 h", "measurement": "viability", "value": "not toxic"}
{"Structure (SMILES)": "O=C(O)COc1ccc(Br)cc1C=NNC(=O)Cc1ccccc1 (mixture of isomers)", "system": "male mice, pilocarpine-induced seizures", "conditions": "oral, 20 mg/kg, 24 h, dosed 30 min before pilocarpine, added: pilocarpine 300 mg/kg i.p.", "measurement": "survival", "value": "100%"}
{"Structure (SMILES)": "CC(C)C[C@H](NC(=O)[C@@H](NC(=O)[C@H](CCONC(=N)N)NC(=O)OCc1ccccc1)C1CCCCC1)[C@@H](O)CC(=O)NCCc1ccccc1", "target or system": "Plasmodium falciparum", "assay": "parasite growth, LDH", "system": "3D7 after resistance selection", "measurement": "EC50", "value": "0.11 µM"}
{"Structure (SMILES)": "CC(C)C[C@H](NC(=O)[C@H](CO)NC(=O)[C@@H](NC(=O)[C@@H]1CCCN1C(=O)[C@@H](N)CCCCN)C(C)C)C(=O)N[C@@H](CO)C(=O)NCCCC[C@H](NC(=O)[C@@H]1CSSC[C@H](NC(=O)[C@H](Cc2ccc3ccccc3c2)NC(=O)[C@H](CCCNC(=N)N)NC(=O)[C@@H](N)CCCNC(=N)N)C(=O)N[C@@H](Cc2ccc(O)cc2)C(=O)N[C@@H](CCCNC(=N)N)C(=O)N[C@@H](CCCCN)C(=O)N[C@H](CCCCN)C(=O)N2CCC[C@H]2C(=O)N[C@@H](Cc2ccc(O)cc2)C(=O)N[C@@H](CCCNC(=N)N)C(=O)N[C@@H](CCCNC(=N)N)C(=O)N1)C(=O)O", "target or system": "CXCR4", "assay": "ligand displacement, radioligand", "measurement": "IC50", "value": "0.0283 µM"}
{"note": "Some of these lines once more:"}
{"Structure (SMILES)": "CC(C)C[C@H](NC(=O)[C@H](CO)NC(=O)[C@@H](NC(=O)[C@@H]1CCCN1C(=O)[C@@H](N)CCCCN)C(C)C)C(=O)N[C@@H](CO)C(=O)N[C@@H](Cc1ccc(O)cc1)C(=O)N[C@@H](CCCNC(=N)N)C(=O)NCCCC[C@H](NC(=O)[C@@H]1CSSC[C@H](NC(=O)[C@H](Cc2ccc3ccccc3c2)NC(=O)[C@H](CCCNC(=N)N)NC(=O)[C@@H](N)CCCNC(=N)N)C(=O)N[C@@H](Cc2ccc(O)cc2)C(=O)N[C@@H](CCCNC(=N)N)C(=O)N[C@@H](CCCCN)C(=O)N[C@H](CCCCN)C(=O)N2CCC[C@H]2C(=O)N[C@@H](Cc2ccc(O)cc2)C(=O)N[C@@H](CCCNC(=N)N)C(=O)N[C@@H](CCCNC(N)=O)C(=O)N1)C(=O)O", "target or system": "CXCR4", "assay": "ligand displacement, radioligand", "measurement": "IC50", "value": "0.0212 µM and 0.0217 µM"}
